Experimental data pooled from the literature.
± gives the spread as reported.
Cell line: K562

Compound | test | setting | scale | measurement | value
O=C(/C=C/c1ccc(O)cc1)c1ccc(O)cc1O | NF-κB activity, inhibitor, luciferase | TNF-stimulated |  | IC50 | 32 µM
COc1ccc(C2=Nn3c(NN=C4C(=O)N(Cc5ccccc5)c5ccc(Cl)cc54)nnc3SC2)cc1 | cell growth or viability, SRB | 10 µM |  | inhibition | 53%
COc1ccc(/C=C/C(=O)c2ccccc2)cc1 | cell viability |  |  | IC50 | 35 µM
COc1cc(/C=C/C(=O)/C=C(O)/C=C/c2ccc(OCC(=O)N3CCOCCOCCOCCOCC3)c(OC)c2)ccc1OCC(=O)N1CCOCCOCCOCCOCC1 | cell growth or viability, SRB | 5 µM |  | inhibition | 22.4%
COc1cc2c(c(OC)c1OC)CC(Cc1ccc3c(c1)OCCO3)C2 (stereo not shown) | cell growth or viability, CCK-8 | 0.1 µM, 72 h |  | inhibition | 3.98%
O=C(CSc1nc2ccccc2s1)Nc1nonc1[N+](=O)[O-] | cell growth or viability, ATP luminescence |  |  | GI50 | 27.6 µM
CC(=O)OC[C@H]1O[C@@H](Sc2sc(C(=O)c3ccc(Br)cc3)c(N)c2-c2nc3ccccc3s2)[C@H](OC(C)=O)[C@@H](OC(C)=O)[C@H]1OC(C)=O | SRB | 10 µM, 48 h |  | growth | 92.2%
COc1ccc(CCC(=O)c2c(O)cc(OC)cc2O)cc1 | NF-κB activity, inhibitor, luciferase | TNF-stimulated |  | IC50 | 11 µM
CC(Cc1ccc(Cl)cc1)=C(c1ccc(Cl)cc1)c1ccc(OCCN(C)C)cc1 | cell growth or viability |  |  | GI50 | 0.98 µM
CC/C=C\C/C=C\C/C=C\C/C=C\C/C=C\C/C=C\CCC(=O)Nc1ccn(C2OC(CO)C(O)C2(F)F)c(=O)n1 (stereo not shown) | cell growth or viability, SRB |  |  | GI50 | 0.0674 µM
CC(=O)OC[C@H]1O[C@@H](Sc2sc(C(=O)c3ccc(C)cc3)c(N)c2-c2nc3ccccc3s2)[C@H](OC(C)=O)[C@@H](OC(C)=O)[C@H]1OC(C)=O | SRB | 10 µM, 48 h |  | growth | 90.6%
COc1cc(C2Oc3ccc(C=C4Oc5cc(O)ccc5C4=O)cc3OC2CO)cc(OC)c1O (stereo not shown) | MTT | 72 h | reference: IC50 MRC5 over IC50 K562 | selectivity ratio | 3.32
COc1cc(O)c(C(=O)/C=C/c2ccc(O)cc2)c(OC)c1 | NF-κB activity, inhibitor, luciferase | TNF-stimulated |  | IC50 | 8 µM
COc1ccc2c(c1)/C(=N\Nc1nnc3n1N=C(c1ccccc1)CS3)C(=O)N2 | cell growth or viability, SRB | 10 µM |  | inhibition | 85%
COc1ccc(CN2C(=O)C(=O)c3cc(NC(C)=O)ccc32)cc1 | western blot | 1 to 10 µM, 24 h |  | Bcl-2 protein level | decreased
O=C(/C=C/c1ccccc1)c1ccccc1 | cell viability |  |  | IC50 | 14 µM
CC(C)CCCC(C)C1CCC2C3CC=C4CC(OC(=O)CCC(=O)NCCCCCCNC(=O)O[C@H]5[C@@H](O)[C@H](n6cnc7c(=O)[nH]c(N)nc76)O[C@@H]5COP(=O)(O)OP(=O)(O)OP(=O)([S-])OC[C@H]5O[C@@H](n6c[n+](C)c7c(O)nc(N)nc76)[C@H](O)[C@@H]5O)CCC4(C)C3CCC12C (mixture of isomers) | annexin V/PI flow cytometry | 5 µM, 20 h |  | apoptotic cells | 30.5 ± 6.5%
C(=C/c1ccccc1)/c1ccccc1 | apoptosis, Hoechst nuclear staining | 24 h, 50% apoptosis induction |  | EC50 | 410 µM
O=C(/C=C/c1ccccc1O)c1ccccc1 | cell viability |  |  | IC50 | 2 µM

For quick reference, copied from above:
Compound | test | setting | scale | measurement | value
CC(C)CCCC(C)C1CCC2C3CC=C4CC(OC(=O)CCC(=O)NCCCCCCNC(=O)O[C@H]5[C@@H](O)[C@H](n6cnc7c(=O)[nH]c(N)nc76)O[C@@H]5COP(=O)(O)OP(=O)(O)OP(=O)([S-])OC[C@H]5O[C@@H](n6c[n+](C)c7c(O)nc(N)nc76)[C@H](O)[C@@H]5O)CCC4(C)C3CCC12C (mixture of isomers) | annexin V/PI flow cytometry | 5 µM, 20 h |  | apoptotic cells | 30.5 ± 6.5%
C(=C/c1ccccc1)/c1ccccc1 | apoptosis, Hoechst nuclear staining | 24 h, 50% apoptosis induction |  | EC50 | 410 µM
